Results collected from several papers.
Compare with care: the assays were run in different laboratories. Several values in a cell are separate wells, animals, samples, runs or records. In brackets after ≈: the same amount, converted by molar mass.

Structure (SMILES) | target or system | test | system | conditions | scale | measurement | result
N=C(N)c1ccc(OCc2ccc(-c3ccccc3)cc2COc2ccc(C(=N)N)cc2)cc1 | Escherichia coli | checkerboard | mcr-3 polymyxin-resistant | concentration not given, added: rifampicin |  | MIC of compound in combination | 3.13 µg/mL
CN1CCN(S(=O)(=O)c2cc([N+](=O)[O-])ccc2N(CCOS(C)(=O)=O)CCOS(C)(=O)=O)CC1 | sample D B-ALL PDX cells | cell viability | ex vivo | 48 h, added: AKR1C3 inhibitor 1 µM, 1 h pretreatment |  | IC50 | 41 µM
CCCCC1(CCCC)CN(c2ccccc2)c2cc(SC)c(OCC(=O)N[C@@H](C(=O)NCC(=O)O)c3ccccc3)cc2S(=O)(=O)C1 |  | item: LDL cholesterol | human, serum | 15 mg once daily, day 1 |  | serum LDL-C | 97.6 mg/dL
COc1cc(CCC[P+](c2ccccc2)(c2ccccc2)c2ccccc2)c(OC)c2c1OCO2.[I-] | UACC-62 | SRB |  |  |  | TGI | -5.37 log M
O=C(Cc1ccccc1I)N[C@H]1CCOC1=O | ExpR1 (Pectobacterium carotovorum) | cellulase activity, antagonist | Pectobacterium carotovorum, single-ExpR1 strain | 5 µM, 4 h, added: OHHL 5 µM |  | inhibition | 65%
COCCC1=C(C(=O)OC)C(c2ccc(Cl)cc2C)C2=C(CC(c3ccc(OC)c(OC)c3)OC2=O)N1 (single isomer, unassigned) | Plasmodium berghei | parasitaemia | KBG-173, mouse | oral, 50 mg/kg, day 6 post-infection, PEG400 vehicle, Thompson test | relative to: vehicle | inhibition | < 10%
CS(=O)(=O)CCCn1c(Cn2c(=O)n(CC(F)(F)F)c3ccncc32)cc2cc(Cl)ccc21 | respiratory syncytial virus | RT-qPCR | hospitalized infants 1-24 months, nasal swab | oral, 1-9 mg/kg daily, day 2, all doses combined | relative to: baseline | LS mean viral load change | -1.44 log10 copies/mL
C#CC[C@@H](N)C(=O)N[C@H](CO)C(=O)N[C@@H](C(=O)N[C@H](CO)C(=O)N[C@H](CCC(=O)O)C(=O)N[C@@H](C(=O)N[C@H](CCC(N)=O)C(=O)N[C@H](CC(C)C)C(=O)N[C@H](CCSC)C(=O)N[C@H](Cc1c[nH]cn1)C(=O)N[C@H](CC(N)=O)C(=O)N[C@H](CC(C)C)C(=O)NCC(=O)N[C@H](CCCCN)C(=O)N[C@H](Cc1c[nH]cn1)C(=O)N[C@H](CC(C)C)C(=O)NCC(=O)N[C@H](CO)C(=O)N[C@H](CCSC)C(=O)N[C@H](CCC(=O)O)C(=O)N[C@H](CCCNC(=N)N)C(=O)N[C@@H](C(=O)N[C@H](Cc1ccc(O)cc1)C(=O)N[C@H](Cc1ccccc1)C(=O)N[C@H](CC(C)C)C(=O)N[C@H](CCCNC(=N)N)C(=O)N[C@H](Cc1ccccc1)C(=O)N[C@H](CCCCN)C(=O)N[C@H](CC(C)C)C(=O)N[C@H](CCC(N)=O)C(=O)N[C@H](CC(C)C)C(=O)N[C@@H](C(N)=O)[C@H](C)CC)C(C)C)[C@H](C)CC)C(C)C | hemagglutinin influenza A/California/07/2009 H1N1 |  |  |  |  | IC50 | 120 µM
CN1C(=O)C(C2C3=C(CC(C)(C)CC3=O)Oc3c(O)cccc32)C(=O)N(C)C1=O (stereo not drawn) | 3T3-L1 adipocytes | qPCR, item: ATGL |  | IC20, 14 days | relative to: untreated mature adipocytes | mRNA level | increased
CC[C@H](C)[C@H](NC(=O)[C@H](C)NC(=O)[C@H](CCCCN)NC(=O)[C@H](CC(C)C)NC(=O)[C@H](C)NC(=O)[C@@H](NC(=O)[C@H](Cc1c[nH]cn1)NC(=O)[C@H](CC(C)C)NC(=O)[C@@H](NC(=O)[C@@H](NC(=O)[C@H](CCCCN)NC(=O)[C@H](C)NC(=O)[C@H](C)NC(=O)[C@H](CO)NC(=O)[C@H](CCCCN)NC(=O)[C@H](Cc1ccccc1)NC(=O)[C@@H](NC(=O)[C@H](CCCCN)NC(=O)[C@H](CC(C)C)NC(=O)[C@H](Cc1ccccc1)NC(=O)[C@H](CO)NC(=O)[C@H](CCCCN)NC(=O)[C@H](Cc1c[nH]c2ccccc12)NC(=O)[C@H](CCCCN)NC(C)=O)[C@@H](C)O)[C@@H](C)O)C(C)C)[C@@H](C)O)C(=O)N[C@@H](CO)C(=O)N[C@@H](CO)C(N)=O | Acinetobacter baumannii |  | ATCC 19606 |  |  | MIC50 | 2 µg/mL (≈ 0.682 µM)
CC[C@H](C)[C@@H]1NC(=O)[C@@H]2CCCN2C(=O)[C@H](CC(C)C)NC(=O)[C@H](CC(C)C)NC(=O)CNC(=O)[C@@H](NC(=O)[C@@H](NC(=O)[C@H](CC(=O)O)NC(=O)CNC(=O)[C@@H](NC(=O)[C@H](C)NC(=O)CNC(=O)[C@H](CCCCN)NC(=O)[C@H](CC(C)C)NC(=O)[C@H](CC(C)C)NC(=O)[C@H](CCCCN)NC(=O)CNC(=O)[C@@H](NC(=O)[C@@H](N)CC(C)C)C(C)C)C(C)C)C(C)C)CSSC[C@@H](C(=O)O)NC1=O |  | RNA-seq, item: Crispld2 | mouse, traumatic brain injury model, frontal cortex and hippocampus | dose not given | relative to: TBI alone | log2 fold change | -1.99
Nc1ncnc2c1ncn2[C@@H]1O[C@@H]2COP(=O)(O)O[C@H]3[C@@H](O)[C@H](n4cnc5c(=O)[nH]cnc54)O[C@@H]3COP(=O)(O)O[C@H]2[C@H]1O | Zika virus | downregulated Reactome pathway, RNA sequencing, item: Elastic fibre formation (R-HSA-1566948) | HFF-1 |  | relative to: ZIKV-infected untreated | fold enrichment | 11.1
O=C(Cc1cccc(Cl)c1)N[C@H]1CCOC1=O | ExpR1 (Pectobacterium carotovorum) | cellulase activity, antagonist | Pectobacterium carotovorum, single-ExpR1 strain | 5 µM, 4 h, added: OHHL 5 µM |  | inhibition | 63%
CC(C)N1CCC(NC2CCN(c3cccc(-c4cc5cc(F)ccc5[nH]4)c3)CC2)CC1 | 786-0 |  |  |  |  | CC50 | 6.41 µM
CC[C@H](C)[C@H](NC(=O)[C@H](CC(C)C)NC(=O)[C@H](CCCCN)NC(=O)[C@H](CCCCN)NC(=O)[C@H](CCCCN)NC(=O)[C@H](CCCCN)NC(=O)[C@H](CC(C)C)NC(=O)[C@@H](NC(=O)[C@@H](NC(=O)[C@@H](NC(=O)[C@H](CC(C)C)NC(=O)[C@H](CCCNC(=N)N)NC(=O)[C@H](CO)NC(=O)[C@@H](N)CO)C(C)C)[C@@H](C)CC)[C@@H](C)CC)C(=O)N[C@@H](CO)C(=O)N[C@@H](CCCCN)C(=O)N[C@@H](CCCCN)C(=O)N[C@@H](CCCCN)C(=O)N[C@@H](CCCCN)C(N)=O | ESKAPE pathogens |  |  | range over most pathogens |  | MIC | 32 to 128 µM (≈ 71.6 to 286 µg/mL)
CCOC(=O)COc1ccc2ccc3oc([N+](=O)[O-])cc3c2c1 | Mycobacterium bovis BCG |  | 1173 P2 |  |  | MIC90 | 0.125 µg/mL (≈ 0.396 µM)
COc1ccc(-n2nc(C(C)=O)s/c2=N\N=C(/C)c2ccc(NC(C)=O)cc2)cc1 | MCF7 | RT-PCR, item: BAX mRNA |  | 0.04 µM | relative to: untreated control | mRNA level | 6.77 fold change
O=C1c2c(O)c(=O)ccn2N([C@@H]2c3ccccc3SCc3c2ccc(F)c3F)[C@@H]2COCCN12 | influenza A virus |  | A/WSN/33 (H1N1), BALB/c mouse, lung | subcutaneous, 2 mg/kg every 6 h, 24 h |  | lung virus titre | 2.5 log10 TCID50/mL
CN1CCN(C2(CNC3CCN(c4cccc(-c5cc6cc(F)ccc6[nH]5)c4)CC3)CCC2)CC1 | Hs-578T |  |  |  |  | GI50 | 2.22 µM
COc1c(CCC[P+](c2ccccc2)(c2ccccc2)c2ccccc2)cc2c(c1OC)OCO2.[I-] | UACC-62 | SRB |  |  |  | GI50 | -6.25 log M
OC(Cn1cncn1)(Cn1cncn1)c1ccc(F)cc1F | Saccharomyces cerevisiae | cell growth | Pdr5 deleted, Cdr1 overexpressed | 2^6.492 µg/mL |  | OD600 | 0.082 and 0.113 and 0.131

Some of these lines once more:
Structure (SMILES) | target or system | test | system | conditions | scale | measurement | result
CS(=O)(=O)CCCn1c(Cn2c(=O)n(CC(F)(F)F)c3ccncc32)cc2cc(Cl)ccc21 | respiratory syncytial virus | RT-qPCR | hospitalized infants 1-24 months, nasal swab | oral, 1-9 mg/kg daily, day 2, all doses combined | relative to: baseline | LS mean viral load change | -1.44 log10 copies/mL
C#CC[C@@H](N)C(=O)N[C@H](CO)C(=O)N[C@@H](C(=O)N[C@H](CO)C(=O)N[C@H](CCC(=O)O)C(=O)N[C@@H](C(=O)N[C@H](CCC(N)=O)C(=O)N[C@H](CC(C)C)C(=O)N[C@H](CCSC)C(=O)N[C@H](Cc1c[nH]cn1)C(=O)N[C@H](CC(N)=O)C(=O)N[C@H](CC(C)C)C(=O)NCC(=O)N[C@H](CCCCN)C(=O)N[C@H](Cc1c[nH]cn1)C(=O)N[C@H](CC(C)C)C(=O)NCC(=O)N[C@H](CO)C(=O)N[C@H](CCSC)C(=O)N[C@H](CCC(=O)O)C(=O)N[C@H](CCCNC(=N)N)C(=O)N[C@@H](C(=O)N[C@H](Cc1ccc(O)cc1)C(=O)N[C@H](Cc1ccccc1)C(=O)N[C@H](CC(C)C)C(=O)N[C@H](CCCNC(=N)N)C(=O)N[C@H](Cc1ccccc1)C(=O)N[C@H](CCCCN)C(=O)N[C@H](CC(C)C)C(=O)N[C@H](CCC(N)=O)C(=O)N[C@H](CC(C)C)C(=O)N[C@@H](C(N)=O)[C@H](C)CC)C(C)C)[C@H](C)CC)C(C)C | hemagglutinin influenza A/California/07/2009 H1N1 |  |  |  |  | IC50 | 120 µM
CN1C(=O)C(C2C3=C(CC(C)(C)CC3=O)Oc3c(O)cccc32)C(=O)N(C)C1=O (stereo not drawn) | 3T3-L1 adipocytes | qPCR, item: ATGL |  | IC20, 14 days | relative to: untreated mature adipocytes | mRNA level | increased
CC[C@H](C)[C@H](NC(=O)[C@H](C)NC(=O)[C@H](CCCCN)NC(=O)[C@H](CC(C)C)NC(=O)[C@H](C)NC(=O)[C@@H](NC(=O)[C@H](Cc1c[nH]cn1)NC(=O)[C@H](CC(C)C)NC(=O)[C@@H](NC(=O)[C@@H](NC(=O)[C@H](CCCCN)NC(=O)[C@H](C)NC(=O)[C@H](C)NC(=O)[C@H](CO)NC(=O)[C@H](CCCCN)NC(=O)[C@H](Cc1ccccc1)NC(=O)[C@@H](NC(=O)[C@H](CCCCN)NC(=O)[C@H](CC(C)C)NC(=O)[C@H](Cc1ccccc1)NC(=O)[C@H](CO)NC(=O)[C@H](CCCCN)NC(=O)[C@H](Cc1c[nH]c2ccccc12)NC(=O)[C@H](CCCCN)NC(C)=O)[C@@H](C)O)[C@@H](C)O)C(C)C)[C@@H](C)O)C(=O)N[C@@H](CO)C(=O)N[C@@H](CO)C(N)=O | Acinetobacter baumannii |  | ATCC 19606 |  |  | MIC50 | 2 µg/mL (≈ 0.682 µM)
